Experimental data of several laboratories.
Parts stem from different laboratories: compare values within a part only.

Block 1 — method: protein binding microarray; molecule type: double-stranded DNA, one strand shown; medium: in vitro; concentration: not given; baseline: not given; direction: higher = stronger binding
Target: Histone acetyltransferase KAT6A, winged helix 1, GST fusion (KAT6A, Homo sapiens, UniProt Q92794, residues 1-85)
Setting: 8-mer, flanks averaged, mean of 2 arrays, mostly near background
Target sequence (chain): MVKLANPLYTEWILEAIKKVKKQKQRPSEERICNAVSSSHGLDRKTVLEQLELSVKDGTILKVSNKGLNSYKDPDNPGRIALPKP
The E-score of `AAGACTAT` is reported as -0.134.
`AGCTGTTC` has an E-score of -0.0871.
With `ATATACAA` the E-score was -0.124.
For `AACTTTGC`, the E-score was -0.0977.
With `ACTGTGGC` the E-score was -0.213.

Block 2 — method: RNA Bind-n-Seq; molecule type: RNA; medium: in vitro; concentration: 1 µM; setting: whole 134-nt RNA, ends assumed; together with: 150 mM KCl; baseline: input library; direction: higher = stronger binding
Target: Ras GTPase-activating protein-binding protein 1, C-terminal RGG region (G3BP1, Homo sapiens, UniProt Q13283)
UniProt Q13283, sequence (whole entry, looked up): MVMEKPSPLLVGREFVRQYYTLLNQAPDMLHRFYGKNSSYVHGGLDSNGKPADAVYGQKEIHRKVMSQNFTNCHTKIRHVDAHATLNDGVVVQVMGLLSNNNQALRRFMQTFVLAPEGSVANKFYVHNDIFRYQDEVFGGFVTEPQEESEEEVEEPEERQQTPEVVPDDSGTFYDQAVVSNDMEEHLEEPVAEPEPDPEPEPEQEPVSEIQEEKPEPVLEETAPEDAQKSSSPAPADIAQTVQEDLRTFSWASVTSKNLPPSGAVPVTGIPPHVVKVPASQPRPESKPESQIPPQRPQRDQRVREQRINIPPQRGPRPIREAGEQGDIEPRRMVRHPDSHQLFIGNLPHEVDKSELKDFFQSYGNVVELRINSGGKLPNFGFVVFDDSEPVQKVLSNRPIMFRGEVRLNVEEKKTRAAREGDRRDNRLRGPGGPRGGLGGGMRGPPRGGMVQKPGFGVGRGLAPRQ
With `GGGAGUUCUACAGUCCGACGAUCCAAGUCCUGUGCUACACAUCGUAUGUACCGAAUCGGGGAAAAGGAAAAGGAAAAGGAAAGUAUUAUGUUACGCCGUUCGGAUCUGCACUUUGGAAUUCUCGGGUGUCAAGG` the log2 enrichment was -2.01.
The log2 enrichment of `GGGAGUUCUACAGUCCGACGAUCAAGUCCUGUGCUACACAUCGUAUGUACCGAAUCGGGGUGGGGUUUUUGGGGUGGGGAAAGUAUUAUGUUACGCCGUUCGGAUCUGCACUUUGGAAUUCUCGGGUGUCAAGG` is reported as 2.26.
The log2 enrichment of `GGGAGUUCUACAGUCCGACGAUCCACAGACAACACGCACCCACACAGACACAGAGGGAAGGGGUUGGGAUGGGGACAGGGUGCACAGCAGGGCGGGGAAGGACCCCAGCCCCUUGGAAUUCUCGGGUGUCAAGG` is reported as -1.01.
`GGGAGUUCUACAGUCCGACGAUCCUGUGCUACACAUCGUAUGUACCGAAUCGGGGAAAAAAAGGGGUUUUUGGGGAAAAAGGGGAAAGUAUUAUGUUACGCCGUUCGGAUCUGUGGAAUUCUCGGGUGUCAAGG` has a log2 enrichment of 0.0482.
With `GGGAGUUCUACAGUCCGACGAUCCUCAAGUCCUGUGCUACACAUCGUAUGUACCGAAUCGGGAGGGUGGGUUUGGGAAAGUAUUAUGUUACGCCGUUCGGAUCUGCACUUCCAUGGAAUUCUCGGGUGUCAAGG` the log2 enrichment was 1.89.

Block 3 — method: protein-binding microarray; molecule type: double-stranded DNA, one strand shown; medium: in vitro; concentration: 250 nM; setting: 60-bp whole probe; together with: salmon DNA 0.4 mg/ml; baseline: random background probes; direction: higher = stronger binding; shared flanks, not repeated: GCCTAGCAC … GTCTTGATTCGCTTGACGCTGCTG
Target: Interferon regulatory factor 7, full length, phosphomimetic (IRF7, Homo sapiens, UniProt Q92985, residues 1-503, S101K/S471D/S472D/S475D/S476D/S477D/S483D/S484D/S487D)
Residues (chain): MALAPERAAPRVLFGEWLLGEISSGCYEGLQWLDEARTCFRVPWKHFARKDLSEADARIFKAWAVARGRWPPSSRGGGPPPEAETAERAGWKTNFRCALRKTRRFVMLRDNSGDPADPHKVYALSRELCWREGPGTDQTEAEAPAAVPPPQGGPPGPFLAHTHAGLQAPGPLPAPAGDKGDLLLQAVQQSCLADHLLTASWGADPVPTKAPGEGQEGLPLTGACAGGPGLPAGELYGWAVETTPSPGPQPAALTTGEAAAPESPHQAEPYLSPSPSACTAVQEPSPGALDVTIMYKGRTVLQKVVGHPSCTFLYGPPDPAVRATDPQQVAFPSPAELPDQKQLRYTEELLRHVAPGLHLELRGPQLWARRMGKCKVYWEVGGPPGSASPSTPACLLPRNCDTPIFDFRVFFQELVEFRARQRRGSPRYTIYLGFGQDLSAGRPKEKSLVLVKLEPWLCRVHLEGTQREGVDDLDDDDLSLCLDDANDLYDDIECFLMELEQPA
For `GCCGATTTCAGTTTCGAGACGTGCTAG`, the log fluorescence was 5.16 z-score.
For `TTAGGTATCGGGACTGGCTTAGTGCTA`, the log fluorescence was -0.0416 z-score.
`TGACAGAGTGAGGTTTGGGCGTGCTAG` has a log fluorescence of -0.916 z-score.
`TCCCTTCAACAGTGCTGGCTGTGCTAG` gave a log fluorescence of 0.558 z-score.
With `TCCTGGAGTCTATGCTGCTGGTGCTAG` the log fluorescence was -0.573 z-score.

Mixed results
With `PhoQ, residues 284 288 289 292 302 303 GLASVI` the fold induction was 11.5 (PhoP, residues 12 14 15 18 19 VQGLL (Escherichia coli, UniProt P23836); Sort-seq, measured: YFP reporter; E. coli; PhoQ-PhoP variant library, together with: 10 µM Mg2+; baseline: high Mg2+ state, higher = stronger signaling).

Excerpt of the above (block 3):
`TCCCTTCAACAGTGCTGGCTGTGCTAG` gave a log fluorescence of 0.558 z-score.
